Experimental data of several laboratories.
Protocols differ between the studies behind these lines. “And” joins repeats or separate records; there may be more than shown. ± marks the error that the study gave.
UCHL1: Ubiquitin carboxyl-terminal hydrolase isozyme L1 (UCHL1, Homo sapiens, UniProt P09936)
Sequence of UniProt P09936 (whole entry, looked up): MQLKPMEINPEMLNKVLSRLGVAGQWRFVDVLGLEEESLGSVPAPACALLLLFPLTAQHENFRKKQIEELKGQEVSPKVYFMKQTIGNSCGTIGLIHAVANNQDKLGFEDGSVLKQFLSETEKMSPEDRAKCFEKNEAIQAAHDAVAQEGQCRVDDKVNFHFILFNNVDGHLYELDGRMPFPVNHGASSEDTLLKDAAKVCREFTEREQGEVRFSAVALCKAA

The plasma concentration of `COc1cc(F)c([C@@H]2CNC(=O)[C@H]2NC(=O)Nc2ccccc2)c(F)c1` is reported as 92 ± 46 nM (Sprague-Dawley rat, ischaemia-reperfusion, plasma; 1 mg/kg, 2 h).
The plasma concentration of `Cc1ccc(S(=O)(=O)n2cc3c4c2C(=O)C(NCc2ccc(Cl)cc2)=CC4=NCC3)cc1` is reported as 438 ± 203 ng/mL (Sprague-Dawley rat, plasma; intravenous, 5 mg/kg, 1 h).
`Cc1cc(C)cc(C(=O)c2c(C(C)C)c(=O)[nH]c(=O)n2Cc2ccnc(N)c2)c1` — result for plasma concentration: “not detected” (HPLC-DAD; Sprague-Dawley rat, plasma; oral, 100 mg/kg).
`Cc1cccc(Cn2cc(CO)c3cnccc32)c1` gave a plasma concentration of 8 ng/mL and 6.2 ng/mL and 8.3 ng/mL (rat, plasma; oral, 100 mg/kg/day, 4 h, day 2).
For `CC(C)c1nc(N(C)S(C)(=O)=O)nc(-c2ccc(F)cc2)c1/C=C/[C@@H](O)C[C@@H](O)CC(=O)O`, the plasma concentration was 75.3 ng/mL (Wistar albino rat, both sexes, plasma; oral, 20 mg/kg, 24 h).
With `COc1cccc(-c2n[nH]c(SCc3ccccn3)n2)c1OC` the plasma concentration was 10400 ng/mL (Sprague-Dawley rats, both sexes; oral dietary, 100 mg/kg/day, day 90, 3 h).
For `CCOCc1nc(O)c(-c2nnc(Cc3ccc(Cl)cn3)o2)c(O)c1-c1c(OC)cccc1OC`, the plasma concentration was 1640 nM (rat, anaesthetised, cannulated, plasma; intravenous infusion, 10 µg/kg/min, 15 min).
For `Cn1c(N)c(C(=O)CCl)c(=O)[nH]c1=O`, the labelling was 15.3% (UCHL1; covalent, intact protein LC-MS; 12.5 µM).
The plasma concentration of `CC1=NN(c2ccccc2)C(=O)C1` is reported as 3130 ± 960 ng/mL (rat Sprague-Dawley pups PN4, plasma; intraperitoneal, 30 mg/kg, 1 h).
`CCN(Cc1ccc(F)cc1)c1ccc(CO)c(Cl)c1` gave a plasma concentration of 216 ng/mL and 109 ng/mL and 214 ng/mL (rat, plasma; oral, 100 mg/kg/day, 4 h, day 2).
`CC(C)(O)c1coc(S(=O)(=O)NC(=O)Nc2c3c(cc4c2CCC4)CCC3)c1` gave a plasma concentration of 4.63 ng/mL and 2.92 ng/mL and 9.5 ng/mL (Sprague-Dawley rat, male; oral, 2 mg/kg, 6 h).
With `Cc1ccc2c(c1)C(=O)[C@]1(O)CCN(c3ccc4nc(C)ccc4c3)C1=N2` the plasma concentration was 4800 ± 600 nM (rat, plasma; subcutaneous, 60 mg/kg, 1 h).
`O=C(CCl)NC(Cn1cncn1)c1ccccc1` (stereo not shown) gave a labelling of 13.3% (UCHL1; covalent, intact protein LC-MS; 12.5 µM).
